Published values collected from several papers.
Every numbered part comes from another study and shows a few of its results, in no order. “And” joins repeats or separate records; there may be more than shown.
UniProt Q86UE8, sequence (whole entry, looked up): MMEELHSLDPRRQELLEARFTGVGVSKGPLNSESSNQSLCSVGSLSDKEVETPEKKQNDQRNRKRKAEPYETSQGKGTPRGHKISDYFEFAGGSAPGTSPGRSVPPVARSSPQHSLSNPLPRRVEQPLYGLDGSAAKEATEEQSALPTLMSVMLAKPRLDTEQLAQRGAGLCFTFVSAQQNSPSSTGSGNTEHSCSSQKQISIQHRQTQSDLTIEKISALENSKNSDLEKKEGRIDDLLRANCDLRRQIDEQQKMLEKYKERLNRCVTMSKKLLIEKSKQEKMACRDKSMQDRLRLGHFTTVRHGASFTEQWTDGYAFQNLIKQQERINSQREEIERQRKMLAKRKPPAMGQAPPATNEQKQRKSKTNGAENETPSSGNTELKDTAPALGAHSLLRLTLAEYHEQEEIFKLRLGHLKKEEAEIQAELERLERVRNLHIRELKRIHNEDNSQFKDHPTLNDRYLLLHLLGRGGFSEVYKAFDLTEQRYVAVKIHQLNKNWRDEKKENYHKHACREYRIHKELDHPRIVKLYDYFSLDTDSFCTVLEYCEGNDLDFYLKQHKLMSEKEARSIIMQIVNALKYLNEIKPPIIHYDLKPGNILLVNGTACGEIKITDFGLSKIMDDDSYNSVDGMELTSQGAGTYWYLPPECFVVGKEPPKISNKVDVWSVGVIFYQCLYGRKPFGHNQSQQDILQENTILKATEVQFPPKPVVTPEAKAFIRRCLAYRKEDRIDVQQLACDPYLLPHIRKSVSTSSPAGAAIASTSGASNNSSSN
UniProt Q13237, sequence (whole entry, looked up): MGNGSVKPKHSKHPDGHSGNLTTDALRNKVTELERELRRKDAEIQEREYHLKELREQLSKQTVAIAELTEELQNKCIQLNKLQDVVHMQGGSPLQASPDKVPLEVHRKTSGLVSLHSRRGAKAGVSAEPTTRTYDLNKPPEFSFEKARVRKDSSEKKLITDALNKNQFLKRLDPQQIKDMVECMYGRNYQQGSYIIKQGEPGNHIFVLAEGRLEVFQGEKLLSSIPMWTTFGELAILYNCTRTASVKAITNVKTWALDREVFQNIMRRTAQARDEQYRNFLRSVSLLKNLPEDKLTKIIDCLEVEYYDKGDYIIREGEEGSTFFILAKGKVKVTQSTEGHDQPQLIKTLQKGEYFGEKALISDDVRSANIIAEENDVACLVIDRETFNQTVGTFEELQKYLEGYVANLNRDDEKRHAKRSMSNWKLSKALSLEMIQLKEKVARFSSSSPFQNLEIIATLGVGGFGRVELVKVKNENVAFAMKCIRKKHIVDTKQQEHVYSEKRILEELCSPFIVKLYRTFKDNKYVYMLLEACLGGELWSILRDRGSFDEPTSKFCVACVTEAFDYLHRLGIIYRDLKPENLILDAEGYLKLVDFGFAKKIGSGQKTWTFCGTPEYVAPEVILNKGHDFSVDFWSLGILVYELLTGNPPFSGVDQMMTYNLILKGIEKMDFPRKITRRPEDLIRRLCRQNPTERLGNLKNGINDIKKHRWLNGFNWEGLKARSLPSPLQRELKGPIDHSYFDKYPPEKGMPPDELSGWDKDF
UniProt P08581, sequence (whole entry, looked up): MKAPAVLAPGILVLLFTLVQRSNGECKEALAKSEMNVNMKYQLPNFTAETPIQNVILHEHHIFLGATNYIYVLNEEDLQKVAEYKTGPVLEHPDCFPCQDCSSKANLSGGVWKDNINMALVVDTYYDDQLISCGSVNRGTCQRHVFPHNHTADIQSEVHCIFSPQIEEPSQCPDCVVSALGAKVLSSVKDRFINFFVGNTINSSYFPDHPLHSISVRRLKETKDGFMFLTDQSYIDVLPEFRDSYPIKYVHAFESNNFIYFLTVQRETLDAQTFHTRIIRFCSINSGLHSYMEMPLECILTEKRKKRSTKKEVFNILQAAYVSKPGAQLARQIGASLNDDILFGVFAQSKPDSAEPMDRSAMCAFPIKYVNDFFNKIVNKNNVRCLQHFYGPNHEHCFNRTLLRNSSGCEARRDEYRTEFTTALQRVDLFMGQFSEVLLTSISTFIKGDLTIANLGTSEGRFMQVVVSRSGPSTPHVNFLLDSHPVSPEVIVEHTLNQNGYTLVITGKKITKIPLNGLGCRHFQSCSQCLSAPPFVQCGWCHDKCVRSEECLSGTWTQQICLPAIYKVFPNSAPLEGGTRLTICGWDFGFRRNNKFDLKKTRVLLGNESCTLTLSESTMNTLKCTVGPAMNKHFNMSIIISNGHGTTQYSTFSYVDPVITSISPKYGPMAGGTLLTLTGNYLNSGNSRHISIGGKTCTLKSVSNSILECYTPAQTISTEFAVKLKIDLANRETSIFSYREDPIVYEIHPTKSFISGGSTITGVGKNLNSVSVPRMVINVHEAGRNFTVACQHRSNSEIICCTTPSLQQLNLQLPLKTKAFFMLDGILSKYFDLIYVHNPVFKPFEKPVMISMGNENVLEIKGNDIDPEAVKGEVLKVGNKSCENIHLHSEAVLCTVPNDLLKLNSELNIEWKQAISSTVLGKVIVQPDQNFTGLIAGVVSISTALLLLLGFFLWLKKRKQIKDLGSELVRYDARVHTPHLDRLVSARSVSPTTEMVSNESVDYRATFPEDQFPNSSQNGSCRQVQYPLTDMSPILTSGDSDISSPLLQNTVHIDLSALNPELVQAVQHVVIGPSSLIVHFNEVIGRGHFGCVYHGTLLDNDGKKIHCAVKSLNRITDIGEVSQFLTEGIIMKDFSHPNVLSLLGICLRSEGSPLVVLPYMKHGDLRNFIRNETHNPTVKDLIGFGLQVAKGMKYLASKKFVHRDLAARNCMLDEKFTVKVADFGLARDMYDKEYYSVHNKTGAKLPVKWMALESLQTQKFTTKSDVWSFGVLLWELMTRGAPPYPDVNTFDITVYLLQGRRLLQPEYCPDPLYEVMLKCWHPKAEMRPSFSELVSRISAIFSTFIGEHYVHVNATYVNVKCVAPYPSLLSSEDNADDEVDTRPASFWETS
UniProt P31751, sequence (whole entry, looked up): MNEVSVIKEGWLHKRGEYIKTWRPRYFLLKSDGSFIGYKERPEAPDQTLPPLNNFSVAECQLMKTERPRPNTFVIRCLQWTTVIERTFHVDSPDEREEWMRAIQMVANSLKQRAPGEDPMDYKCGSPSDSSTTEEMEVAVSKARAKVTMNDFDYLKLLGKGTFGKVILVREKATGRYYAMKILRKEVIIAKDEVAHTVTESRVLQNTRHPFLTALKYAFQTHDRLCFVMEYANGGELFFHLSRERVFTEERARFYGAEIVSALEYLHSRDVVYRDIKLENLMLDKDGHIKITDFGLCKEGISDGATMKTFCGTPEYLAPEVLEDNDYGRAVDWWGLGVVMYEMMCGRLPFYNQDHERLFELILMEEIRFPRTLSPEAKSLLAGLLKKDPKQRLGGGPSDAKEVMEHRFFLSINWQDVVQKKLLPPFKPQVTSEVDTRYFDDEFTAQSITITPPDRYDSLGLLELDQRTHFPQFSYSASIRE
UniProt Q86Y07, sequence (whole entry, looked up): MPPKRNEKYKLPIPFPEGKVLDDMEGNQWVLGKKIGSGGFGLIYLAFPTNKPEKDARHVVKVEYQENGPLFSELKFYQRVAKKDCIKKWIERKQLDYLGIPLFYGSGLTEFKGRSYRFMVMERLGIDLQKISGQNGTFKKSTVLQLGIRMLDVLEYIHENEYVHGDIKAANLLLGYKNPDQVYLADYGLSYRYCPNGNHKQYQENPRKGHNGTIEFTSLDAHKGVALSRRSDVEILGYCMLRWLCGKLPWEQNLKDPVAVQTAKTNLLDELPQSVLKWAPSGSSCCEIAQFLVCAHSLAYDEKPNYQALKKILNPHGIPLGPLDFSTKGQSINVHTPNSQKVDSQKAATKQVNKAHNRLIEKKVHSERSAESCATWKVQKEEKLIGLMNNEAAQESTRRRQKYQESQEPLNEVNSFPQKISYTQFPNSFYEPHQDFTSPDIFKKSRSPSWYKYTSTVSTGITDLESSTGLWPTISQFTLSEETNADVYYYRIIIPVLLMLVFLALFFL
UniProt P06493, sequence (whole entry, looked up): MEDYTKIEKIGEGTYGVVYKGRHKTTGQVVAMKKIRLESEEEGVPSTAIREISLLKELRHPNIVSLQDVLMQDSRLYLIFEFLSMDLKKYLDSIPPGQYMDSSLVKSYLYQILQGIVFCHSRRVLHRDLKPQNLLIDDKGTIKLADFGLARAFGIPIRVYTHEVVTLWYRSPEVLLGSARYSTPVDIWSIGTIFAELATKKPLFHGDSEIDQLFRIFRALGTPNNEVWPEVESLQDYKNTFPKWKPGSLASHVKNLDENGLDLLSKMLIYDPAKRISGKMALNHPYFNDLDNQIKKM

Block 1
Target: Eukaryotic initiation factor 4A-I (EIF4A1, Homo sapiens, UniProt P60842)
UniProt P60842, sequence (whole entry, looked up): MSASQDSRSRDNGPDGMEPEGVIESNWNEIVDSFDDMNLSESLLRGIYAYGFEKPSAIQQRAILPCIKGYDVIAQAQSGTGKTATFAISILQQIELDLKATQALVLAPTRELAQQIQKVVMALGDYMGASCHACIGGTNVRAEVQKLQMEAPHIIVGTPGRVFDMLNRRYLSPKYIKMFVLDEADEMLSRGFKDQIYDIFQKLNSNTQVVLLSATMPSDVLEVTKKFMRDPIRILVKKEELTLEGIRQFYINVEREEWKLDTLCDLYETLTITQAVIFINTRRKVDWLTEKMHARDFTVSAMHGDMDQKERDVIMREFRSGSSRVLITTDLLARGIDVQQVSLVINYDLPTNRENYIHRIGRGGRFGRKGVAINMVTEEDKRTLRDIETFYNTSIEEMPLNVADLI
Read-out: RNA clamping
Technique: fluorescence polarization
Concentration: concentration not given
Together with: FAM-labelled poly r(AG)8 RNA
Reading: higher = more clamping
For `COc1ccc([C@@]23Oc4cc(OC)cc(OC)c4[C@]2(O)C2=C(C(=O)N4CCC[C@@]4(C)N2)[C@H]3c2ccccc2)cc1`, “fluorescence polarization change” read 6.8 mP.
Under “fluorescence polarization change”, `C#CCOc1ccc(-c2nc3c(c(=O)n2CC#C)[C@@H](c2ccccc2)[C@]2(c4ccc(OC)cc4)Oc4cc(OC)cc(OC)c4[C@]32O)cc1` is recorded as -11 mP.
`COC(=O)[C@@H]1[C@@H](c2ccccc2)[C@]2(c3ccc(OC)cc3)Oc3cc(OC)cc(OC)c3[C@@]23NC(C2CCCCC2)=N[C@@]13O` — result for “fluorescence polarization change”: 63.4 mP.
For `COc1cc(F)cc2c1[C@]1(O)[C@H](O)[C@@H](C#N)[C@H](c3ccccc3)[C@]1(c1ccc(Br)cc1)O2`, “fluorescence polarization change” read 11.7 mP.
Under “fluorescence polarization change”, `COC(=O)[C@@H]1[C@@H](c2ccccc2)[C@]2(c3ccc(OC)cc3)Oc3cc(OC)cc(OC)c3[C@@]1(O)C2(O)O` is recorded as 2.7 mP.
Under “fluorescence polarization change”, `COc1ccc([C@@]23Oc4cc(OC)cc(OC)c4[C@]2(O)[C@H](O)[C@H](C(=O)c2ccco2)[C@H]3c2ccc(O)cc2)cc1` is recorded as 31 mP.
For `COc1ccc([C@@]23Oc4cc(OC)cc(OC)c4[C@]2(O)c2nc(C4CC4)[nH]c(=O)c2[C@H]3c2ccccc2)cc1`, “fluorescence polarization change” read 54.6 mP and 59 mP and 76.1 mP.
`COc1cc(OC)c2c(c1)O[C@@]1(c3ccc(Br)cc3)[C@H](c3ccccc3)C3=C(N[C@@H]4CCCN4C3=O)[C@@]21O`: “fluorescence polarization change” 44.5 mP.
`COC(=O)[C@H]1[C@@H](O)[C@@]2(O)c3c(OC)cc(OS(=O)(=O)c4ccc(C)cc4)cc3O[C@@]2(c2ccc(Br)cc2)[C@@H]1c1ccccc1`: “fluorescence polarization change” 19.3 mP and 33.2 mP.

Block 2
SMILES: O=C(Nc1ccccc1)Nc1cccc(Oc2ccc3nccn3n2)c1
Concentration: 1 µM
TLK2 (Homo sapiens, UniProt Q86UE8); competitive binding panel; baseline: vehicle — remaining binding: 100%.
It gave 97% for remaining binding (CAMK2G (Homo sapiens, UniProt Q13555); competitive binding panel; baseline: vehicle).
It gave 100% for remaining binding (WEE1 (Homo sapiens, UniProt P30291); competitive binding panel; baseline: vehicle).
PRKG2 (Homo sapiens, UniProt Q13237); competitive binding panel; baseline: vehicle — remaining binding: 100%.
The remaining binding was 100% (PIK3C2G (Homo sapiens, UniProt O75747); competitive binding panel; baseline: vehicle).
For MKNK2 (Homo sapiens, UniProt Q9HBH9); competitive binding panel; baseline: vehicle: remaining binding read 100%.
For RPS6KB1 (Homo sapiens, UniProt P23443); competitive binding; S6K1: remaining binding read 100%.
For BMX (Homo sapiens, UniProt P51813); competitive binding panel; baseline: vehicle: remaining binding read 100%.
VRK2 (Homo sapiens, UniProt Q86Y07); competitive binding panel; baseline: vehicle — remaining binding: 100%.
It gave 67% for remaining binding (PLK1 (Homo sapiens, UniProt P53350); competitive binding panel; baseline: vehicle).
NEK9 (Homo sapiens, UniProt Q8TD19); competitive binding panel; baseline: vehicle — remaining binding: 64%.
For FGFR3 (Homo sapiens, UniProt P22607, G697C); competitive binding panel; baseline: vehicle: remaining binding read 91%.
It gave 73% for remaining binding (HIPK2 (Homo sapiens, UniProt Q9H2X6); competitive binding panel; baseline: vehicle).

Block 3
Target: D(4) dopamine receptor (DRD4, Homo sapiens, UniProt P21917)
UniProt P21917, sequence (whole entry, looked up): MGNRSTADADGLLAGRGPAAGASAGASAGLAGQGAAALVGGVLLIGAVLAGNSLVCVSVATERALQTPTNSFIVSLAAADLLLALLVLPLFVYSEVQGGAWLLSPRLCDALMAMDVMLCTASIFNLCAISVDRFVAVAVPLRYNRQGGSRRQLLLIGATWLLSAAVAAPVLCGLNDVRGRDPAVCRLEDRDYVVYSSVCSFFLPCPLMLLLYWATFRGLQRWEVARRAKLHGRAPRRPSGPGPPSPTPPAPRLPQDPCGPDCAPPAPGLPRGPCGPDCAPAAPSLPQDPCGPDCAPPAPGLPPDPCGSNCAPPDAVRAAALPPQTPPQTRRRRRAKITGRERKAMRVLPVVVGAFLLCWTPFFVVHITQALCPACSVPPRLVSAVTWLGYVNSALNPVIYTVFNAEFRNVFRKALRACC
Read-out: binding
Technique: radioligand binding
Concentration: 10 µM
`O=C(Nc1ccc(-n2nc(-c3cccnc3)cc2C(F)(F)F)cn1)c1ccc(-c2ccccc2)c(F)c1` gave an inhibition of -10.6%.
With `CCOC(=O)c1cc2cc(-c3cc(C(=O)NCc4ccc(C(=O)O)cc4)nn3C)ccc2[nH]1` the inhibition was -19.3%.
For `CC1=C(C#N)C(c2ccc3c(c2)c(NC(=O)c2ccccc2C)nn3C)C(C#N)=C(C)N1`, the inhibition was 0.21%.
The inhibition of `CC(=O)Nc1nc(CN2CCC[C@H](Cc3cc(C)nc(C)c3)C2)cs1` is reported as 6.82%.
`O=C(O)c1cc(-c2ccc(C3CCNCC3)cc2)c2ccc(-c3ccc(C(F)(F)F)cc3)cc2c1` has an inhibition of 10.4%.
For `Cc1nc(N2CC[C@@H](O)C2)ncc1-c1cc(C(F)(F)F)cc2[nH]ncc12`, the inhibition was 7.69%.
`CN1CCN(C(=O)C(C)(C)c2ccc(C(=O)Nc3cn4cc(-c5ccncc5)ccc4n3)cc2)CC1` gave an inhibition of 9.12%.
`O=C1c2ccc(Nc3ccc(F)cc3F)cc2CCc2ccc(OC[C@H](O)CO)cc21` has an inhibition of 9.38%.
With `CNC(=O)c1ccc(Nc2ncc(C(F)(F)F)c(NCc3nccnc3N(C)S(C)(=O)=O)n2)cc1` the inhibition was 7.8%.
`Cc1c(NC(=O)c2cc(C(N)=O)nc3cc(F)ccc23)c(C(F)(F)F)nn1Cc1ccc(C(C)(C)C)cc1` has an inhibition of 4.93%.
The inhibition of `O[C@]1(C(F)(F)F)CCCC[C@H]1Nc1ccc(F)cc1` is reported as -4.08%.
With `COCc1nc2cnc3cc(-c4c(C)noc4C)c(OC[C@H]4CCNC4)cc3c2n1[C@H](C)c1ccccc1` the inhibition was 79.5%.
`CN([C@@H]1CCc2c(CC(=O)O)c3cc(S(C)(=O)=O)ccc3n2C1)S(=O)(=O)c1ccc(F)cc1` gave an inhibition of 2.8%.
The inhibition of `C[C@@H]1CN(c2cc(-c3nn(C)c4ccc(OC5(C)CC5)cc34)ncn2)C[C@H](C)O1` is reported as -2.65%.

Block 4
Compound: O=c1c(-c2ccc(F)cc2)c(-c2ccncc2)[nH]n1-c1ccc(Cl)cc1
Read-out: enzyme activity
Action: inhibitor
Concentration: 0.5 µM
Baseline: control
The remaining activity was 90.7% (Myosin-IIIb (MYO3B, Homo sapiens, UniProt Q8WXR4)).
PRKG2 (Homo sapiens, UniProt Q13237) — remaining activity: 110%.
It gave 103% for remaining activity (RPS6KA4 (Homo sapiens, UniProt O75676)).
The remaining activity was 100% (NEK3 (Homo sapiens, UniProt P51956)).
MARK2 (Homo sapiens, UniProt Q7KZI7) — remaining activity: 88.8%.
MINK1 (Homo sapiens, UniProt Q8N4C8) — remaining activity: 97.3%.
For DDR2 (Homo sapiens, UniProt Q16832): remaining activity read 90.6%.
For MARK4 (Homo sapiens, UniProt Q96L34): remaining activity read 80%.
For PLK3 (Homo sapiens, UniProt Q9H4B4): remaining activity read 96.3%.
TLK2 (Homo sapiens, UniProt Q86UE8) — remaining activity: 109%.
For Cyclin-dependent kinase 1, with cyclin A (CDK1, Homo sapiens, UniProt P06493): remaining activity read 83.1%.
MET (Homo sapiens, UniProt P08581) — remaining activity: 101%.
PNCK (Homo sapiens, UniProt Q6P2M8) — remaining activity: 92%.
For AKT2 (Homo sapiens, UniProt P31751): remaining activity read 97.8%.
The remaining activity was 78.9% (CLK4 (Homo sapiens, UniProt Q9HAZ1)).

Excerpt of the above (block 1):
For `COc1cc(F)cc2c1[C@]1(O)[C@H](O)[C@@H](C#N)[C@H](c3ccccc3)[C@]1(c1ccc(Br)cc1)O2`, “fluorescence polarization change” read 11.7 mP.
Under “fluorescence polarization change”, `COC(=O)[C@@H]1[C@@H](c2ccccc2)[C@]2(c3ccc(OC)cc3)Oc3cc(OC)cc(OC)c3[C@@]1(O)C2(O)O` is recorded as 2.7 mP.
Under “fluorescence polarization change”, `COc1ccc([C@@]23Oc4cc(OC)cc(OC)c4[C@]2(O)[C@H](O)[C@H](C(=O)c2ccco2)[C@H]3c2ccc(O)cc2)cc1` is recorded as 31 mP.
